Experimental data of several laboratories.
Each numbered part is a random draw from the data of one study; scales do not carry over between parts.

Block 1 — observed: enzyme activity; action: inhibitor; concentration: 20 µM; endpoint: inhibition
Target: Replicase polyprotein 1ab, polymerase (rep, Severe acute respiratory syndrome coronavirus 2, UniProt P0DTD1)
Cc1coc2c1C(=O)C(=O)c1c-2ccc2c1CCCC2(C)C: 2.94%
O[C@@](Cc1ncc(CC2(C(F)(F)F)CC2)[nH]1)(c1ccc(-n2cccn2)cc1)C(F)(F)F: -2.23%
COc1cc(OC)cc(-c2ccc3c(-c4ccc(F)cc4)[nH]nc3n2)c1: 0.07%
CCCCN(CCCC)CC(O)c1cc(Cl)cc2c1-c1ccc(Cl)cc1/C2=C/c1ccc(Cl)cc1 (centres unmarked): -2.7%
OC[C@H]1O[C@H](O)[C@H](O)[C@@H](O)[C@@H]1O: -0.37%
CC(C)(C)c1ccc(-c2nc3ccccc3[nH]2)cc1: 3.61%
CCNC(=O)[C@@H]1CCCN1C(=O)[C@H](CCCNC(=N)N)NC(=O)[C@H](CC(C)C)NC(=O)[C@@H](CC(C)C)NC(=O)[C@H](Cc1ccc(O)cc1)NC(=O)[C@H](CO)NC(=O)[C@H](Cc1c[nH]c2ccccc12)NC(=O)[C@H](Cc1c[nH]cn1)NC(=O)[C@@H]1CCC(=O)N1: -0.24%
O=c1[nH]c2ccccc2n1CCN1CCN(c2cccc(C(F)(F)F)c2)CC1: 3.09%
C#C[C@]1(O)CC[C@H]2[C@@H]3CCC4=CCCC[C@@H]4[C@H]3C(=C)C[C@@]21CC: 5.09%
CCc1cc2c(s1)-n1c(C)nnc1CN=C2c1ccccc1Cl: -3.27%
CN(C)CCN1C(=O)c2cccc3cc(N)cc(c23)C1=O: 5.63%

Block 2 — technique: protein-binding microarray; form: double-stranded DNA, one strand shown; sample: in vitro; concentration: 250 nM; setting: 60-bp whole probe; together with: salmon DNA 0.4 mg/ml; baseline: random background probes; reading: higher = stronger binding; endpoint: log fluorescence; all sequences stand within: GCCTAGCAC … GTCTTGATTCGCTTGACGCTGCTG
Target: Interferon regulatory factor 7, full length, phosphomimetic (IRF7, Homo sapiens, UniProt Q92985, residues 1-503, S101K/S471D/S472D/S475D/S476D/S477D/S483D/S484D/S487D)
Residues (chain): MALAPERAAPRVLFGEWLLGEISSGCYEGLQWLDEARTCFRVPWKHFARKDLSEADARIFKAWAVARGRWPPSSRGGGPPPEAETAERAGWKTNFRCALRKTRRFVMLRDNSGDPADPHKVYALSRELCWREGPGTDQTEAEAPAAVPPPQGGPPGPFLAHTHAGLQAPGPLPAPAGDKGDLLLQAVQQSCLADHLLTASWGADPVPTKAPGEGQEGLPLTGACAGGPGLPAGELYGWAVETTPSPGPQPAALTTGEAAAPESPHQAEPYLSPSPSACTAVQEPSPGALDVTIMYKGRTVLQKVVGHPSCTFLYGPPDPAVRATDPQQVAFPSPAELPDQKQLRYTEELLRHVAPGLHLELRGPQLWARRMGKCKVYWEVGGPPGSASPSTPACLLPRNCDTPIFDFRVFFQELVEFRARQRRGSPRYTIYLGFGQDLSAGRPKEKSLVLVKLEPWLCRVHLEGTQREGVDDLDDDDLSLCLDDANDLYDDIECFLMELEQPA
GACGGTATCGGGACAGGGGACGTGCTA: -0.184 z-score
TCAGAGTTCTGTTGCAAACTGTGCTAG: -0.61 z-score
TTAGGTTCCGTTTTCCTTTAGTGCTAG: 8.53 z-score
TCACATTTTTCCCTCTGACTGTGCTAG: 1.2 z-score
TTAGGACTGGGATTCGGTTAGTGCTAG: 1.55 z-score
GACGGATTGGGTATCGGGACGTGCTAG: -0.234 z-score
TCAGATTTCAGTTCCGATTAGTGCTAG: 1.81 z-score
TTAGCTTTCGGACTGGGTTAGTGCTAG: 0.225 z-score

Block 3 — technique: protein binding microarray; form: double-stranded DNA, one strand shown; sample: in vitro; concentration: not given; baseline: not given; reading: higher = stronger binding; endpoint: E-score
Target: Histone acetyltransferase KAT6A, winged helix 1, GST fusion (KAT6A, Homo sapiens, UniProt Q92794, residues 1-85)
Setting: 8-mer, flanks averaged, mean of 2 arrays, mostly near background
Target sequence (chain): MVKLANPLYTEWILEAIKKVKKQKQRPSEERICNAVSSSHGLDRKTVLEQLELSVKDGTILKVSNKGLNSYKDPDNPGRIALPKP
GATGTCTA: -0.046
AGCTCTAC: -0.104
ATAGTTTC: -0.075
ACAGTGCA: -0.0816
CGAAGGTC: 0.0601
AACACATC: -0.158
TCCTAACA: -0.17
CAACGATC: -0.114

Further values, each from its own experiment — cell line: HEK-293T/ACE2; concentration: concentration not given; time: 16 (unit not given); baseline: vehicle
CCC(=O)O[C@]1(C(=O)SCF)[C@H](C)C[C@H]2[C@@H]3C[C@H](F)C4=CC(=O)C=C[C@]4(C)[C@@]3(F)[C@@H](O)C[C@@]21C — viability: 106%
CN1CCC[C@@H]1Cc1c[nH]c2ccc(CCS(=O)(=O)c3ccccc3)cc12 — viability: 103%

Excerpt of the above (block 2):
TCAGAGTTCTGTTGCAAACTGTGCTAG: -0.61 z-score
TCACATTTTTCCCTCTGACTGTGCTAG: 1.2 z-score
